# Measurements gathered from unrelated publications.
# Compare with care: the assays were run in different laboratories. Values joined by “and” are separate records of one study, mostly repeats; a detail may differ.
# Target: Fibroblast growth factor receptor 3 (FGFR3, Homo sapiens, UniProt P22607)
# Sequence of UniProt P22607 (whole entry, looked up): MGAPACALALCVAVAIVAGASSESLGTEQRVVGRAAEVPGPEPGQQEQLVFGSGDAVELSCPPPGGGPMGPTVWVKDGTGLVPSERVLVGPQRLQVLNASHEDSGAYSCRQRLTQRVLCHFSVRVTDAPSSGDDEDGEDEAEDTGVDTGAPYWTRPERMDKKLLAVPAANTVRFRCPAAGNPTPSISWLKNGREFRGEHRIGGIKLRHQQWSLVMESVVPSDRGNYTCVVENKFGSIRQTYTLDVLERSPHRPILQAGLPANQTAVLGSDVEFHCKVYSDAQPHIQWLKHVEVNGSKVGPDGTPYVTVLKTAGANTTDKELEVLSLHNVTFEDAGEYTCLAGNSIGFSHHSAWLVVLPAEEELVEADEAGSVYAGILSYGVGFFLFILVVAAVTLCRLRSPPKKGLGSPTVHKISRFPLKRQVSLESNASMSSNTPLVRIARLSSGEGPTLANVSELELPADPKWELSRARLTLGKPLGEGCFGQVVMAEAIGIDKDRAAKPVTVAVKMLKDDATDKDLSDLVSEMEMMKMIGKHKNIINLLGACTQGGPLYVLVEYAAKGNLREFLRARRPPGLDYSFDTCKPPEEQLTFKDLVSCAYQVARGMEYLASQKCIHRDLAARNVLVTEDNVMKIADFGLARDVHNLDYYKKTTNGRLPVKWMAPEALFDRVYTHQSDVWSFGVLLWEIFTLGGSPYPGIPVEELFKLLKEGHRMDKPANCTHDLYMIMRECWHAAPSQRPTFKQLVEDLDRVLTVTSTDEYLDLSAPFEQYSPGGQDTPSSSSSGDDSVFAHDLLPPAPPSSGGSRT
SMILES,assay,conditions,how to read,measurement,result
C=C1CCCCCCCCCC(CO)C1=O (stereo not drawn),cell-free assay,10 µM,,remaining signal,100%
COCC12C(=O)NC3C4(C(OC)CC1O)C1CC5(O)C(OC)C(O)C(OC(C)=O)(C1C5OC(=O)c1ccccc1)C3(O)C(OC)C24 (stereo not drawn),"kinase activity, inhibitor, ProQinase kinase profiling",25 µM,reference: control,remaining activity,99% and 92%
NC(=O)C[C@H]1CCc2sc3ncnc(O[C@H]4CC[C@H](N5CCOCC5)CC4)c3c21,"enzyme activity, inhibitor",10 µM,,inhibition,15%
CN1CCN(C(=O)c2ccc(-c3ccc4c(c3)/C(=C/c3ccc(N5CCOCC5)cc3)C(=O)N4)cc2)CC1,calculated from IC50,,,binding free energy,-11.2 kcal/mol
O=C(Cc1ccc(OCc2ccccc2)cc1)NC1(C(=O)O)CCN(C(=O)c2ccc(-c3cccc(Cl)c3)cc2)CC1,"enzyme activity, inhibitor",10 µM,,activity vs control,119%
COc1ccc(NC(=O)Nc2ccc3c(c2)C(=O)N(C(C)CO)CC(C)C(CN(C)Cc2ccc4c(c2)OCO4)O3)cc1 (stereo not drawn),"kinase activity, KinaseProfiler","0.03 µM, species human",reference: control,remaining activity,101%
CN1CCN(Cc2ccc(-c3ccc(CO[C@H]4CCC[C@@H]4NC(=O)c4cc(-c5cnn(C)c5)cnc4N)cc3)cc2)CC1,"enzyme activity, inhibitor",0.1 µM,,inhibition,5%
COc1c(OCCCN2CCOCC2)ccc2c1N=C(NC(=O)c1cnc(N)nc1)N1CCN=C21,"kinase activity, inhibitor",1 µM,reference: untreated control,remaining activity,125%
Cc1[nH]nc2c1N=C(c1ccccc1Cl)c1cnc(N3CCOCC3)cc1N2,"enzyme activity, inhibitor",0.5 µM,,inhibition,> 99%
O=C=[N][Ru-4]123([n]4c5ccc(O)cc5c5c6c(c7cc(F)c[n+]1c7c54)C(=O)NC6=O)[S+]1CC[S+]2CC[S+]3CC1 (stereo not drawn),enzyme activity,"100 nM, human enzyme, together with: 10 µM ATP",reference: untreated,remaining activity,100%
COc1cc(Nc2nccc(-c3cnn4nc(OC)ccc34)n2)cc(C(F)(F)F)c1,"binding, competition with immobilised ligand",1 µM,,remaining binding,100%
C=CC(=O)Nc1cccc(-c2cnc3[nH]cc(C(=O)NC(C)(C)C)c3n2)c1,kinase activity,0.1 µM,,inhibition,23% and 17%

# Repeated from above:
SMILES,assay,conditions,how to read,measurement,result
C=C1CCCCCCCCCC(CO)C1=O (stereo not drawn),cell-free assay,10 µM,,remaining signal,100%
O=C(Cc1ccc(OCc2ccccc2)cc1)NC1(C(=O)O)CCN(C(=O)c2ccc(-c3cccc(Cl)c3)cc2)CC1,"enzyme activity, inhibitor",10 µM,,activity vs control,119%
